Assay results pooled from the literature.
Several values in a cell are separate wells, animals, samples, runs or records. ± marks the error that the study gave.

CNCc1cc(-c2ccccc2F)n(S(=O)(=O)c2cccnc2)c1 — AUC(0-inf) (Sprague-Dawley rat, plasma; oral, 10 mg/kg, dosed 30 min after voriconazole, with: voriconazole 30 mg/kg single oral dose): 1550 ± 353 ng·h/mL
CC(C)C[C@H]1C(=O)N2CCC[C@H]2[C@]2(O)O[C@](NC(=O)[C@@H]3C=C4c5cccc6[nH]c(Br)c(c56)C[C@H]4N(C)C3)(C(C)C)C(=O)N12 — AUC(0-inf) (male Sprague-Dawley rats, plasma; intravenous, 0.1 mg/kg, with: DAL 1.7 mg/kg plus HAL 0.7 mg/kg): 595 ± 83.2 ng·h/mL
CNC(=O)c1ccc(-c2cnc3ncc(Cc4ccc5ncccc5c4)n3n2)cc1F — AUC(0-inf) (moderate hepatic impairment; oral, 200 mg, mean): 5960 ng·h/mL
CCC[C@@]1(CCc2ccccc2)CC(O)=C([C@H](CC)c2cccc(NS(=O)(=O)c3ccc(C(F)(F)F)cn3)c2)C(=O)O1 — AUC(0-inf) (Sprague Dawley rat, male, plasma; oral, 5 mg/kg, lipid-free formulation): 8730 ± 771 ng·h/mL
Cn1nnc2c(C(N)=O)ncn2c1=O — AUC(0-inf) (microdialysis; male athymic rat, intracranial U87 glioma, tumour extracellular fluid; oral, 50 mg/kg, before cediranib): 1750 ng·h/mL and 1490 ng·h/mL and 1820 ng·h/mL and 1180 ng·h/mL and 320 ng·h/mL and 1480 ng·h/mL and 1110 ng·h/mL
CC(C)=CCC[C@](C)(O[C@@H]1O[C@H](CO)[C@@H](O)[C@H](O)[C@H]1O)[C@H]1CC[C@]2(C)[C@@H]1[C@H](O)C[C@@H]1[C@@]3(C)CC[C@H](O[C@@H]4O[C@H](CO)[C@@H](O)[C@H](O)[C@H]4O[C@@H]4O[C@H](CO)[C@@H](O)[C@H](O)[C@H]4O)C(C)(C)[C@@H]3CC[C@]12C — AUC(0-inf) (Sprague Dawley rat, male, plasma; oral, 42 mg/kg, in frozen ginseng extract): 26300 ± 7700 ng·h/mL
C=CC(N)CCC(=O)O (stereo not drawn) — AUC(0-inf) (male Sprague-Dawley rat, plasma; oral, 1.0 mg/kg, formulation 5, with: Sar 200 mg/kg): 1760 ± 70 ng·h/mL
O=C(/C=C/c1ccc(O)c(O)c1/C=C/c1ccc(O)c(O)c1)O[C@H](Cc1ccc(O)c(O)c1)C(=O)O — AUC(0-inf) (UPLC-MS/MS; Wistar rat, microcirculation dysfunction model, plasma; oral, 100 mg/kg Salvia miltiorrhiza stem-leaf extract FT): 202 ± 149 ng·h/mL
CCOc1cc([C@@H](CS(C)(=O)=O)N2C(=O)c3cccc(NC(C)=O)c3C2=O)ccc1O[C@@H]1O[C@H](C(=O)O)[C@@H](O)[C@H](O)[C@H]1O — AUC(0-inf) (moderate renal impairment, plasma; oral, 30 mg apremilast single, geometric mean): 7900 ng·h/mL
CC(C)=CCC[C@](C)(O[C@@H]1O[C@H](CO)[C@@H](O)[C@H](O)[C@H]1O)[C@H]1CC[C@]2(C)[C@@H]1[C@H](O)C[C@@H]1[C@@]3(C)CC[C@H](O)C(C)(C)[C@@H]3[C@@H](O[C@@H]3O[C@H](CO)[C@@H](O)[C@H](O)[C@H]3O)C[C@]12C — AUC(0-inf) (Sprague Dawley rat, male, plasma; oral, 25 mg/kg, in frozen ginseng extract): 3800 ± 1800 ng·h/mL
C[C@@H]1O[C@@H](OC[C@H]2O[C@@H](Oc3c(-c4ccc(O)c(O)c4)oc4cc(O)cc(O)c4c3=O)[C@H](O)[C@@H](O)[C@@H]2O)[C@H](O)[C@H](O)[C@H]1O — AUC(0-inf) (UPLC-MS/MS; Wistar rat, microcirculation dysfunction model, plasma; oral, 100 mg/kg Salvia miltiorrhiza stem-leaf extract FT): 174 ± 136 ng·h/mL
C=CC(=O)Nc1cc(Nc2nccc(-c3cn(C)c4ccccc34)n2)c(OC)cc1N(C)CCN(C)C — AUC(0-inf) (male Sprague-Dawley rat, plasma; oral, 10 mg/kg, PEG200 pretreatment only): 539 ± 144 ng·h/mL
CCN(CC)Cc1cc(Nc2ccnc3cc(Cl)ccc23)ccc1O — AUC(0-inf) (rat, Wistar, male, plasma; oral, 60 mg/kg): 4010 ± 428 ng·h/mL
O=C(/C=C/c1ccc(O)c2c1[C@H](C(=O)O)[C@@H](c1ccc(O)c(O)c1)O2)O[C@H](Cc1ccc(O)c(O)c1)C(=O)O — AUC(0-inf) (UPLC-MS/MS; Wistar rat, microcirculation dysfunction model, plasma; oral, 100 mg/kg Salvia miltiorrhiza stem-leaf extract FS): 212 ± 42.5 ng·h/mL
CC(C)=CCC[C@](C)(O[C@@H]1O[C@H](CO)[C@@H](O)[C@H](O)[C@H]1O)[C@H]1CC[C@]2(C)[C@@H]1[C@H](O)C[C@@H]1[C@@]3(C)CC[C@H](O)C(C)(C)[C@@H]3[C@@H](O[C@@H]3O[C@H](CO)[C@@H](O)[C@H](O)[C@H]3O[C@@H]3O[C@@H](C)[C@H](O)[C@@H](O)[C@H]3O)C[C@]12C — AUC(0-inf) (Sprague Dawley rat, male, plasma; oral, 45 mg/kg, in red ginseng extract): 7400 ± 1300 ng·h/mL
O=C(/C=C/c1ccc(O)c(O)c1)O[C@H](Cc1ccc(O)c(O)c1)C(=O)O — AUC(0-inf) (UPLC-MS/MS; Wistar rat, microcirculation dysfunction model, plasma; oral, 100 mg/kg Salvia miltiorrhiza stem-leaf extract FT): 179 ± 127 ng·h/mL
CCc1cc2c(cc1N1CCC(N3CCOCC3)CC1)C(C)(C)c1[nH]c3cc(C#N)ccc3c1C2=O — AUC(0-inf) (healthy subjects, matched to moderate impairment, plasma, total; oral, 300 mg single, fed): 1950 ng·h/mL
O=C(O)/C=C/c1ccc(O)c(O)c1 — AUC(0-inf) (UPLC-MS/MS; Wistar rat, microcirculation dysfunction model, plasma; oral, 100 mg/kg Salvia miltiorrhiza stem-leaf extract FS): 55.3 ± 17.6 ng·h/mL
CCCC[C@H](NC(C)=O)C(=O)N[C@H]1CCC(=O)NC[C@@H](C(=O)N[C@@H](Cc2c[nH]c3ccccc23)C(N)=O)NC(=O)[C@H](CCCNC(=N)N)NC(=O)[C@@H](Cc2ccccc2)NC(=O)[C@H](Cc2c[nH]cn2)NC1=O — AUC(0-inf) (CD Sprague Dawley rat, female, plasma; subcutaneous, 1.0 mg/kg daily, day 1): 907 ng·h/mL
CC(C)=CCC[C@](C)(O[C@@H]1O[C@H](CO[C@@H]2O[C@H](CO)[C@@H](O)[C@H](O)[C@H]2O)[C@@H](O)[C@H](O)[C@H]1O)[C@H]1CC[C@]2(C)[C@@H]1[C@H](O)C[C@@H]1[C@@]3(C)CC[C@H](O[C@@H]4O[C@H](CO)[C@@H](O)[C@H](O)[C@H]4O[C@@H]4O[C@H](CO)[C@@H](O)[C@H](O)[C@H]4O)C(C)(C)[C@@H]3CC[C@]12C — AUC(0-inf) (Sprague Dawley rat, male, plasma; oral, 86 mg/kg, in white ginseng extract): 130000 ± 23500 ng·h/mL
COc1ccc(/C=C\c2cc(OC)c(OC)c(OC)c2)cc1OP(=O)(O)O — AUC(0-inf) (Sprague-Dawley rat, plasma; intravenous, 28 mg/kg): 15200 ± 1050 ng·h/mL

Repeated from above:
C=CC(=O)Nc1cc(Nc2nccc(-c3cn(C)c4ccccc34)n2)c(OC)cc1N(C)CCN(C)C — AUC(0-inf) (male Sprague-Dawley rat, plasma; oral, 10 mg/kg, PEG200 pretreatment only): 539 ± 144 ng·h/mL
O=C(/C=C/c1ccc(O)c2c1[C@H](C(=O)O)[C@@H](c1ccc(O)c(O)c1)O2)O[C@H](Cc1ccc(O)c(O)c1)C(=O)O — AUC(0-inf) (UPLC-MS/MS; Wistar rat, microcirculation dysfunction model, plasma; oral, 100 mg/kg Salvia miltiorrhiza stem-leaf extract FS): 212 ± 42.5 ng·h/mL
